Results of several laboratories.
Each numbered part is a random draw from the data of one study; scales do not carry over between parts.

Block 1 — technique: protein binding microarray; form: double-stranded DNA, one strand shown; matrix: in vitro; concentration: not given; baseline: not given; reading: higher = stronger binding; quantity: E-score
Target: Histone acetyltransferase KAT6A, winged helix 1, GST fusion (KAT6A, Homo sapiens, UniProt Q92794, residues 1-85)
Setting: 8-mer, flanks averaged, mean of 2 arrays, mostly near background
Target sequence (chain): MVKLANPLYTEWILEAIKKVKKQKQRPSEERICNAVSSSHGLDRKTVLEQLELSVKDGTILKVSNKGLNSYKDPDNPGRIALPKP
Sequence = CGCCTATA; result = 0.265
Sequence = TACAACAA; result = -0.235
Sequence = ATCCGCCG; result = 0.401
Sequence = AAACGTAA; result = -0.081
Sequence = ACTGACCA; result = -0.113
Sequence = ACTGCTAA; result = -0.069
Sequence = CAATCTTA; result = 0.0135
Sequence = CCCGTAAC; result = 0.337

Block 2 — technique: RNAcompete; form: RNA; matrix: in vitro; concentration: 20 nM; setting: 7-mer, probes averaged, single round; baseline: mean of 7-mers; reading: higher = stronger binding; quantity: 7-mer Z-score
Target: PABPC1L2, full length, GST fusion (mouse, UniProt A0ABA7IW68)
Construct (chain): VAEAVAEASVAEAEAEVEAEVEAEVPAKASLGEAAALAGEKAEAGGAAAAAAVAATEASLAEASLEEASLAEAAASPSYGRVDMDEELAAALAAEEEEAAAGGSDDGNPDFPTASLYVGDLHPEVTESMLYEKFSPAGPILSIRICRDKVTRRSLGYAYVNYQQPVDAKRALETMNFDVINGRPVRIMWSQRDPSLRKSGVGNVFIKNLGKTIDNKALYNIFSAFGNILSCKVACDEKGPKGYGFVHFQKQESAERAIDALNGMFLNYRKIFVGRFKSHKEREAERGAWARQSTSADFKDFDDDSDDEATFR
Sequence = AGUCACC; result = -0.233
Sequence = GUGGACA; result = 0.396
Sequence = UGACACC; result = -0.146
Sequence = GGUAAUC; result = 0.0225
Sequence = AAGUAUU; result = -0.00652

Block 3 — technique: protein-binding microarray; form: double-stranded DNA, one strand shown; matrix: in vitro; concentration: 940 nM top; setting: 60-bp whole probe; with: salmon DNA 0.4 mg/ml; baseline: random background probes; reading: higher = stronger binding; quantity: fitted relative affinity
Target: Interferon regulatory factor 5, full length, phosphomimetic (IRF5, Homo sapiens, UniProt Q13568-2, residues 1-514, S451D/S453D/S456D/S462D)
Constant ends, left off below: GCCTAGCAC … GTGCTAGGTCTTGATTCGCTTGACGCTGCTG
Sequence = TCTGTAATTCTTAGAACAGC; result = -0.261 z-score
Sequence = TTAGAACAGAGTATCGATTA; result = 3.02 z-score
Sequence = TCATATCTCTGTTTTTGACT; result = 0.753 z-score
Sequence = TTAGGACTGCTACTGCTTAA; result = -0.344 z-score
Sequence = GACGATTCCAGATTCGAGAC; result = -0.00743 z-score

Other studies, line by line
Molecule = PhoQ, residues 284 288 289 292 302 303 SSCLAV; target = PhoP, residues 12 14 15 18 19 NYFTV (Escherichia coli, UniProt P23836); assay = Sort-seq, refers to: YFP reporter; test system = E. coli; setting = PhoQ-PhoP variant library, with: 10 µM Mg2+; scale = baseline: high Mg2+ state, higher = stronger signaling; quantity = fold induction; result = 4.16

For quick reference, copied from above (block 1):
Sequence = CGCCTATA; result = 0.265
Sequence = TACAACAA; result = -0.235
Sequence = ATCCGCCG; result = 0.401
